Published values gathered from unrelated publications.
Every numbered part comes from another study and shows a few of its results, in no order. Values joined by “and” are separate records of one study, mostly repeats; a detail may differ.

Set 1
SMILES: CC(C)n1cnc(-c2ccc(F)cc2)c1-c1ncc(C(=O)Nc2ccc(N3CCN(C)CC3)cc2)[nH]1
Measurement: patients with adverse event
Phase 2a trial, measured: blood creatinine increased; human, idiopathic pulmonary fibrosis; 30 mg once daily, grade 5: 0%
Phase 2a trial, measured: hyperlipidaemia; human, idiopathic pulmonary fibrosis; 60 mg once daily, grade 3: 0%
Phase 2a trial, measured: hypertriglyceridaemia; human, idiopathic pulmonary fibrosis; 30 mg once daily, grade 3: 0%
Phase 2a trial, measured: hypocalcaemia; human, idiopathic pulmonary fibrosis; 60 mg once daily, grade 4: 0%
Phase 2a trial, measured: hyperuricaemia; human, idiopathic pulmonary fibrosis; 60 mg once daily, grade 4: 0%
Phase 2a trial, measured: blood creatinine increased; human, idiopathic pulmonary fibrosis; 60 mg once daily, grade 2: 0%
Phase 2a trial, measured: hypertriglyceridaemia; human, idiopathic pulmonary fibrosis; all compound arms total, grade 5: 0%
measured: abnormal liver function test, grade 2; idiopathic pulmonary fibrosis patients; dose not given, all compound arms pooled: 0%
measured: prostatic calcification, maximum grade 2; idiopathic pulmonary fibrosis patients; dose not given, all compound arms pooled: 0%

Set 2
SMILES: CN(C)c1ncnc(-c2ccc3nc(Nc4cc(CN5CCN(C(=O)CC(F)(F)F)CC5)ccn4)[nH]c3c2)c1Cl
Read-out: cell-free assay
Method: competition with immobilised ligand
Tested at: 1 µM
Measurement: remaining binding
EGFR (Homo sapiens, UniProt P00533, del747-752/P753S): 100%
FLT3 (Homo sapiens, UniProt P36888): 71%
TNNI3K (Homo sapiens, UniProt Q59H18): 50%
WNK4 (Homo sapiens, UniProt Q96J92): 53%
EGFR (Homo sapiens, UniProt P00533, A750P/del747-749): 100%
BLK (Homo sapiens, UniProt P51451): 82%

Set 3
Compound: CCN(c1nc(N)c(C(=O)N=C(N)N)nc1Cl)C(C)C
Read-out: β-arrestin recruitment
Mode: agonist
Method: PRESTO-Tango
Tested at: 10 µM
Baseline: untreated
Measurement: fold over basal
CCKBR (Homo sapiens, UniProt P32239): 1.18
G-protein coupled receptor 12 (GPR12, Homo sapiens, UniProt P47775): 1.1
TACR2 (Homo sapiens, UniProt P21452): 0.97 fold
GRPR (Homo sapiens, UniProt P30550): 0.95 fold
Calcitonin receptor, isoform b (CALCR, Homo sapiens, UniProt P30988): 1.65
OPRD1 (Homo sapiens, UniProt P41143): 5.82
Apelin receptor (APLNR, Homo sapiens, UniProt P35414): 1.2
CCR7 (Homo sapiens, UniProt P32248): 1.08
CCKAR (Homo sapiens, UniProt P32238): 0.94
GRM1 (Homo sapiens, UniProt Q13255): 0.99 fold

Set 4
Compound: C[C@@H]1CN(c2ccc(-c3cc(C(=O)NCCOCCOCCOCCOCCOCCOCCNC(=O)/C=C/c4[nH]cc(C(=O)N[C@@H](CC(N)=O)c5ccc(F)c(Cl)c5)c4-c4ccc(Cl)cc4F)ccc3F)cc2NC(=O)c2ccc(F)cc2C(F)(F)F)C[C@H](C)N1C
Mode: degrader
Time: 24 h
Measurement: remaining protein level
WDR5/DCAF1: WDR5/DCAF1 (Homo sapiens, UniProt P61964+Q9Y4B6)
WDR5/DCAF1; HiBiT luminescence; 3800 nM: 68.3% and 68% and 60.9%
WDR5 (Homo sapiens, UniProt P61964); Jess capillary immunoassay, measured: WDR5 over vinculin; 60.3 nM; baseline: DMSO: 88.7% and 87.8% and 93%
WDR5/DCAF1; HiBiT luminescence; 2 nM: 97.4% and 102% and 94.3%
WDR5/DCAF1; HiBiT luminescence; 5.15 nM: 86.5% and 113% and 101%

Set 5
Target: Serine/threonine-protein kinase D1 (PRKD1, Homo sapiens, UniProt Q15139)
Read-out: enzyme activity
Mode: inhibitor
Tested at: 0.5 µM
Baseline: control
Measurement: remaining activity
Cc1cc(Nc2cc(N3CCN(C)CC3)nc(Sc3ccc(NC(=O)C4CC4)cc3)n2)[nH]n1: 102%
C[C@@H](N)[C@H]1CC[C@H](C(=O)Nc2ccncc2)CC1: 97.5%
COc1ccc(COc2ccc(Cc3cnc(N)nc3N)cc2OC)cc1: 95.2%
O=c1cc(N2CCOCC2)oc2c(-c3ccccc3)cccc12: 98.3%
FC(F)(F)c1ccc(/C=C/c2nc(COc3ccc(CCCCn4ccnn4)cc3)co2)cc1: 93.2%
N#C/C(=C(/N)SC1C=CC=CC1)c1cccc(C(O)c2ccncc2)c1 (stereo not drawn): 98.5%
N#Cc1cnc2cnc(NCc3cccnc3)cc2c1Nc1ccc(F)c(Cl)c1: 94.5%
COc1ccc2c(c1)c(C1=C(c3c[nH]c4ccccc34)C(=O)NC1=O)cn2CCCN(C)C: 68.8%
COc1cc2c(N3CCN(C(=O)Nc4ccc(OC(C)C)cc4)CC3)ncnc2cc1OCCCN1CCCCC1: 96.1%
c1cc(-c2cnn3cc(-c4ccc(OCCN5CCCCC5)cc4)cnc23)ccn1: 81.9%
CN(C)S(=O)(=O)c1ccc2c(c1)/C(=C/c1cc3c([nH]1)CCCC3)C(=O)N2: 102%
O=C(c1ccccc1)c1ccc(N2CCOCC2)cc1O: 102%
Nc1nc(Nc2ccc(S(N)(=O)=O)cc2)nn1C(=S)Nc1c(F)cccc1F: 7.79%
O=Nc1c(-c2c(O)[nH]c3cc(Br)ccc23)[nH]c2ccccc12: 93.6%
O=C(O)/C=C/c1cc(Br)c(Br)c(Br)c1Br: 88.9%
O=C1Cc2c([nH]c3ccc(Br)cc23)-c2ccccc2N1: 101%
CNc1cc2c(Nc3cccc(Br)c3)ncnc2cn1: 92.3%
N#CC(c1ccnc(NCCc2cccnc2)n1)c1nc2ccccc2s1 (stereo not drawn): 82.4%
CC(C)(C)c1nc2c3cc[nH]c(=O)c3c3cc(F)ccc3c2[nH]1: 8.19%
COc1cccc(-c2cc(=O)c3ccccc3o2)c1N: 103%
c1ccc2c(-c3ccncc3)c[nH]c2c1: 95.5%
NC(=O)c1cccc(-c2cc(Nc3ccc(OC(F)(F)F)cc3)ncn2)c1: 99.5%
O=C1c2ccccc2-c2nc3nnnn3nc21: 86.5%
O=C1Nc2ccc(Br)cc2/C1=C/c1cc2c([nH]1)CCCC2: 93.8%
Oc1cccc(-c2nc(N3CCOCC3)c3oc4ncccc4c3n2)c1: 98.3%
